{"data": "Experimental data collected from several papers", "note": "Numbered parts are unrelated; each lists some results of a single study.", "chain of UniProt P00519 (whole entry, unmodified, looked up)": "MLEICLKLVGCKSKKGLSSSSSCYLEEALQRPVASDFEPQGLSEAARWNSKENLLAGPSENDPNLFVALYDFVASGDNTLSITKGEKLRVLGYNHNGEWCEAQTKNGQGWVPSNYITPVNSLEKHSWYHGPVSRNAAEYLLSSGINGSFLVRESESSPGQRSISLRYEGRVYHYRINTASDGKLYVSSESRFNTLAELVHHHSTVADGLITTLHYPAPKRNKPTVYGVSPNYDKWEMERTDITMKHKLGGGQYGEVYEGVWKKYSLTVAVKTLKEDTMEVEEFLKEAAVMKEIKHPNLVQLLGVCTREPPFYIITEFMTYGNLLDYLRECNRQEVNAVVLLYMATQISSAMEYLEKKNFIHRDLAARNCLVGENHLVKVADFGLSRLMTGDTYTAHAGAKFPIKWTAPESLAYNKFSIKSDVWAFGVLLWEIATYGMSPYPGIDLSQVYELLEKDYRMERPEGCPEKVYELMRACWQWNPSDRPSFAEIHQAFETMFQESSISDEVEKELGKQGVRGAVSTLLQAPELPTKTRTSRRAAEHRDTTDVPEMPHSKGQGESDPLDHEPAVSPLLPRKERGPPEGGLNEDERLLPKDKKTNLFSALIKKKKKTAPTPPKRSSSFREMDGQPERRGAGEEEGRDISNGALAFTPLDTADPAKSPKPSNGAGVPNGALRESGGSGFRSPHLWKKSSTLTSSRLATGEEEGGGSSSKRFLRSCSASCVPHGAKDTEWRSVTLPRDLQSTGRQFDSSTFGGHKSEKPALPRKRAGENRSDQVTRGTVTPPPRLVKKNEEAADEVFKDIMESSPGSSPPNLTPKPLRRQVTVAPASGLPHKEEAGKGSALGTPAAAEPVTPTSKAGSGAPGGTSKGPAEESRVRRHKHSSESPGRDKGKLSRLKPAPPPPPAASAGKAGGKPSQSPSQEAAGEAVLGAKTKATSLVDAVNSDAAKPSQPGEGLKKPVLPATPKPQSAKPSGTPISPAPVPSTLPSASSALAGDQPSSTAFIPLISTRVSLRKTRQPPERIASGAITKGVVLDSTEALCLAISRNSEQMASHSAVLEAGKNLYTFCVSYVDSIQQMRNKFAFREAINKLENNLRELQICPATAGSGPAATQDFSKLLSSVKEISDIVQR"}
{"data": "Series 1", "target": "DNA polymerase theta, helicase domain (POLQ, Homo sapiens, UniProt O75417)", "mode": "inhibitor", "tested at": "concentration not given", "notes": "average", "added": "without ssDNA", "chain of UniProt O75417 (whole entry, looked up)": "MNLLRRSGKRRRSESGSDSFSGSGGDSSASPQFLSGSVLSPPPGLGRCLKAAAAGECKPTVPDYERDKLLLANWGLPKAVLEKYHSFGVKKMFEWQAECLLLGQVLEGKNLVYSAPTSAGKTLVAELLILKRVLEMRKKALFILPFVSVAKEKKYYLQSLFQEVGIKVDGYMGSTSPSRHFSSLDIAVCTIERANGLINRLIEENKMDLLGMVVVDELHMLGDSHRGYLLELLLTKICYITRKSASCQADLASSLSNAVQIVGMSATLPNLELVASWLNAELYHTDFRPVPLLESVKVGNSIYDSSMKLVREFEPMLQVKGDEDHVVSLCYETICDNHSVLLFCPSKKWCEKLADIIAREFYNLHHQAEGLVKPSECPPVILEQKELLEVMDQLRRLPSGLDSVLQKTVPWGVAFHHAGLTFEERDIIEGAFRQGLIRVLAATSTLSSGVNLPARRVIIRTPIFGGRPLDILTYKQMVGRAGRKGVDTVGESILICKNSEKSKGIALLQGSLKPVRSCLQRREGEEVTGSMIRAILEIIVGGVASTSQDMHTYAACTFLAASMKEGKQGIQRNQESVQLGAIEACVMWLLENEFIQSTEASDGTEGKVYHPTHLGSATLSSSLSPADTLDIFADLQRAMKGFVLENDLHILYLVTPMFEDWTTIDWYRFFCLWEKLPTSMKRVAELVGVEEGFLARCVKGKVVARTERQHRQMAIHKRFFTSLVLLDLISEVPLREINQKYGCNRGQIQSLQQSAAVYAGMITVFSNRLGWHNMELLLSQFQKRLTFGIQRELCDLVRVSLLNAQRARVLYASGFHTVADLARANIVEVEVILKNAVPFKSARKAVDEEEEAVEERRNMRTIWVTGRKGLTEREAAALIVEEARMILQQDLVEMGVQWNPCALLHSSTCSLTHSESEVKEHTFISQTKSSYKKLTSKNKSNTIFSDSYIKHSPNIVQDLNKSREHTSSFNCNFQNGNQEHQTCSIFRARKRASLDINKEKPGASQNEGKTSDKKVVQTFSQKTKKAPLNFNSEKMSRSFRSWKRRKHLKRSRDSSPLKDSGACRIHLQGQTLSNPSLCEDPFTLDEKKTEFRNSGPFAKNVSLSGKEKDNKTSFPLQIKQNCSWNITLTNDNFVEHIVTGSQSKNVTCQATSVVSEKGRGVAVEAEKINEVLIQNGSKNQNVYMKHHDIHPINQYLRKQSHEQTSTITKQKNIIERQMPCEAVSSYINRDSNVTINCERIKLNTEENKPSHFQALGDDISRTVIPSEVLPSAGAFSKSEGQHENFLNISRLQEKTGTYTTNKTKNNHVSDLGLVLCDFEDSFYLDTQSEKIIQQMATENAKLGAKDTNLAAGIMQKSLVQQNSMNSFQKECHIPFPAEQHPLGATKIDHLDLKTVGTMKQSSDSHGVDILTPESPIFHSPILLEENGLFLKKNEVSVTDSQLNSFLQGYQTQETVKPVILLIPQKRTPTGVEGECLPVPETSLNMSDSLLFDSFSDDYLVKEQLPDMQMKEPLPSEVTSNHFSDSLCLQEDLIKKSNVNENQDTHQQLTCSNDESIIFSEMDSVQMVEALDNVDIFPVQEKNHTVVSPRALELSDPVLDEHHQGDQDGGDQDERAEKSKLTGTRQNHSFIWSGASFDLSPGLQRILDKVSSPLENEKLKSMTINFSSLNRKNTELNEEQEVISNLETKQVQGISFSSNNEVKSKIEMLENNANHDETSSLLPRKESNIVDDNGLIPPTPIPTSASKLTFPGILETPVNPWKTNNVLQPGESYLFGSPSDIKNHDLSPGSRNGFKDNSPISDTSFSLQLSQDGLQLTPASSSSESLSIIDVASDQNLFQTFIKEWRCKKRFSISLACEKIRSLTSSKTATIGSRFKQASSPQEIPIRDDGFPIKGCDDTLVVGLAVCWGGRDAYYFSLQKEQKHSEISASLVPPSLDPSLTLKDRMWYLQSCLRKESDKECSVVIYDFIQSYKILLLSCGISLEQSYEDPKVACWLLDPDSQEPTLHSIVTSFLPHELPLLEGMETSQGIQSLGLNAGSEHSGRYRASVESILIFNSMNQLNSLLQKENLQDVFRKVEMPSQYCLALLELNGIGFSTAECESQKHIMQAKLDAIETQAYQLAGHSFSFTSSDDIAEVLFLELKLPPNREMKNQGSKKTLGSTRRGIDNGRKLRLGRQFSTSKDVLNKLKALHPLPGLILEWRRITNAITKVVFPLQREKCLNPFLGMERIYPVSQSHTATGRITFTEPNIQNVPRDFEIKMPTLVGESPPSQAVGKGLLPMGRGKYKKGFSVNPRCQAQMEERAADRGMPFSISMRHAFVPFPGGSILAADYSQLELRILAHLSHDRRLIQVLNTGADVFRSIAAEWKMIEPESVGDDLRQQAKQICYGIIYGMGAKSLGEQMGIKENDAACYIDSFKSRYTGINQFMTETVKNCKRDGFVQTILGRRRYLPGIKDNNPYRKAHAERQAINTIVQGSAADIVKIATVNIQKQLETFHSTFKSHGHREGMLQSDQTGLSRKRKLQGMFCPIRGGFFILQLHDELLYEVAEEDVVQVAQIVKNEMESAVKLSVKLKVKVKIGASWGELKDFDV"}
{"SMILES": "O=C(CSc1ncc(S(=O)(=O)c2ccc(Br)cc2)c(=O)[nH]1)NCc1ccc(Cl)cc1", "remaining activity [%]": 62.2}
{"SMILES": "CCc1ccc(/C=C2/SC(=S)NC2=O)cc1", "remaining activity [%]": 45.8}
{"SMILES": "CC(=O)Oc1cccc2c1C(=O)c1c(OC(C)=O)cc(C(=O)O)cc1C2=O", "remaining activity [%]": 58.2}
{"SMILES": "Cc1ccc(C(=O)c2cc(O)c(O)c([N+](=O)[O-])c2)cc1", "remaining activity [%]": 46.6}
{"SMILES": "O=C(Nc1ccccc1C(=O)O)c1cccc(S(=O)(=O)N2CCCC2)c1", "remaining activity [%]": 55.4}
{"data": "Series 2", "target": "Serine/threonine-protein kinase 38 (STK38, Homo sapiens, UniProt Q15208)", "observed": "enzyme activity", "mode": "inhibitor", "tested at": "0.5 µM", "relative to": "control", "chain of UniProt Q15208 (whole entry, looked up)": "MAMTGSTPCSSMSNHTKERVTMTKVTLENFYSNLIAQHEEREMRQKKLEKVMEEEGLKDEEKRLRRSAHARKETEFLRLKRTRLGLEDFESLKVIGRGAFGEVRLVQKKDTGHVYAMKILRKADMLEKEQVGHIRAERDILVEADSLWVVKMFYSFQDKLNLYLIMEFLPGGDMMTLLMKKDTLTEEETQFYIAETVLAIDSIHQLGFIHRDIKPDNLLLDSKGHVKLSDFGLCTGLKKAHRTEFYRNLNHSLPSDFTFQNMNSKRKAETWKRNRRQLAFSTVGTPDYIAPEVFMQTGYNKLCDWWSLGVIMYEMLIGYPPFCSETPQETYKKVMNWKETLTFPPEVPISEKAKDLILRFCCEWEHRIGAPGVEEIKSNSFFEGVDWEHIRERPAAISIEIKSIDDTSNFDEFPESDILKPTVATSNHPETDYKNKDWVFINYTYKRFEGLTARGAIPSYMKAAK"}
{"SMILES": "C#Cc1cccc(Nc2ncnc3cc(OCCOC)c(OCCOC)cc23)c1", "remaining activity": "101%"}
{"SMILES": "Oc1ccc(-c2nc(-c3ccncc3)c(-c3ccc(F)cc3)[nH]2)cc1", "remaining activity": "99.8%"}
{"SMILES": "Cc1cccc(-c2[nH]c(C(C)(C)C)nc2-c2ccc3c(c2)OCO3)n1", "remaining activity": "91.7%"}
{"SMILES": "COc1cc2nccc(Oc3ccc(NC(=S)NC(=O)c4ccccc4C)cc3)c2cc1OC", "remaining activity": "107%"}
{"SMILES": "Nc1ccc2ncnc(NCCc3ccc(Oc4ccccc4)cc3)c2c1", "remaining activity": "97.9%"}
{"SMILES": "Nc1ncnc2n[nH]c(Nc3ccc(F)cc3)c12", "remaining activity": "101%"}
{"SMILES": "CCOC(=O)c1c(C)[nH]c(/C=C2\\C(=O)Nc3ccccc32)c1C", "remaining activity": "101%"}
{"SMILES": "O=C(CCCc1ccc(-c2ccccc2F)cc1)Nc1ccc(O)cc1", "remaining activity": "109%"}
{"SMILES": "O=C(O)c1ccc2c3c1cccc3c(=O)n1c3ccccc3nc21", "remaining activity": "97.5%"}
{"SMILES": "O=C1NC(=O)C(c2cn(CCCn3ccnc3)c3ccccc23)=C1Nc1ccccc1", "remaining activity": "99.1%"}
{"SMILES": "N#CC(C#N)=C(N)/C(C#N)=C/c1ccc(O)cc1", "remaining activity": "96.9%"}
{"SMILES": "NCCNc1ncc(C(N)=O)c(Nc2cccc(C(F)(F)F)c2)n1", "remaining activity": "78.7%"}
{"SMILES": "Cc1ccc(Nc2nccc(N(C)c3ccc4c(C)n(C)nc4c3)n2)cc1S(N)(=O)=O", "remaining activity": "100%"}
{"SMILES": "COc1cc2ncnc(Nc3ccc(F)c(Cl)c3)c2cc1OCCCN1CCOCC1", "remaining activity": "105%"}
{"SMILES": "CNC(=O)c1cc(Oc2ccc(NC(=O)Nc3ccc(Cl)c(C(F)(F)F)c3)cc2)ccn1", "remaining activity": "99.8%"}
{"SMILES": "COc1cc2ncnc(Nc3ccc(Oc4ccccc4)cc3)c2cc1OC", "remaining activity": "105%"}
{"SMILES": "Cc1ccc(NC(=O)c2ccc(CN3CCN(C)CC3)cc2)cc1Nc1nc(-c2cccnc2)cs1", "remaining activity": "95.9%"}
{"data": "Series 3", "cell line": "mouse MPNST tumor cells", "method": "high-content nuclear imaging", "item": "cell number", "tested at": "10 µM", "time": "12 h", "notes": "mean of 2 replicates", "relative to": "plate mean", "direction": "higher = more cells"}
{"Compound": "CN1CC[C@H](c2c(O)cc(O)c3c(=O)cc(-c4ccccc4Cl)oc23)[C@H](O)C1", "nuclei count": "-4.56 z-score"}
{"Compound": "CCn1cc(C(=O)O)c(=O)c2cnc(N3CCNCC3)nc21", "nuclei count": "0.843 z-score"}
{"Compound": "N#Cc1cccc(-c2c[nH]c3ncnc(N4CCOCC4)c23)c1", "nuclei count": "2.19 z-score"}
{"Compound": "Cc1cc(C)c(/C=C2\\C(=O)Nc3ccccc32)[nH]1", "nuclei count": "-1.1 z-score"}
{"Compound": "Cc1cc(-c2ccc(CC(=O)Nc3ccc(-c4cccnc4)cc3)cc2)ccn1", "nuclei count": "3.81 z-score"}
{"Compound": "CC(C)Oc1ccc(-c2cnc3c(-c4ccnc5ccccc45)cnn3c2)cc1", "nuclei count": "-0.745 z-score"}
{"data": "Series 4", "cell line": "HaCaT", "tested at": "100 µM", "time": "36 h"}
{"Structure (SMILES)": "CC(COc1ccccc1)NC(C)C(O)c1ccc(O)cc1 (stereo not shown)", "viability [%]": 98.9}
{"Structure (SMILES)": "Nc1ccc(S(=O)(=O)NC(=O)c2ccccc2)cc1", "viability [%]": 70.4}
{"Structure (SMILES)": "CCN(CC)C(=O)N1CCN(C)CC1", "viability [%]": 97.4}
{"Structure (SMILES)": "NC(=O)c1cc[n+](CC2=C(C(=O)O)N3C(=O)[C@@H](NC(=O)[C@@H](c4ccccc4)S(=O)(=O)[O-])[C@H]3SC2)cc1", "viability [%]": 98.7}
{"Structure (SMILES)": "CCOc1nc2cccc(C(=O)OCc3oc(=O)oc3C)c2n1Cc1ccc(-c2ccccc2-c2noc(=O)[nH]2)cc1", "viability [%]": 97}
{"Structure (SMILES)": "CN(C)CCC=C1c2ccccc2C=Cc2ccccc21", "viability [%]": 5.37}
{"Structure (SMILES)": "CCCCCCOC(=O)NC(=N)c1ccc(NCc2nc3cc(C(=O)N(CCC(=O)OCC)c4ccccn4)ccc3n2C)cc1", "viability [%]": 7.58}
{"Structure (SMILES)": "COc1ccc(-c2coc3cc(O)ccc3c2=O)cc1", "viability [%]": 84.8}
{"data": "Mixed results"}
{"SMILES": "O=C(Nc1cccnn1)N1CC(CC=Cc2cncc(Oc3ccc(C(F)(F)F)cn3)n2)C1", "target": "Tyrosine-protein kinase ABL1 (ABL1, Homo sapiens, UniProt P00519, F317I)", "test": "KINOMEscan", "conditions": "1 µM, F317I mutant, nonphosphorylated", "how to read": "relative to: control", "measurement": "remaining binding", "value": "53%"}
